Experimental data pooled from the literature.
Each line is one published result; not all experiments were run side by side. Numbers after ± are the reported error. Converted amounts (≈) assume the structure as drawn. Where no end group is shown, it is not given here.

| Substance | organism | assay | test system | conditions | scale | quantity | result |
| --- | --- | --- | --- | --- | --- | --- | --- |
| CCCCCCCCOc1c(OC)cc(NC(C)CCCN)c2nc(C(C)(C)C)ccc12 (stereo not drawn) | Staphylococcus aureus | microbial killing | ATCC33591 MRSA | drug-resistant strain |  | MBC | 20 µg/mL (≈ 45.1 µM) |
| COc1cc(C2OCOCC2C)ccc1O (stereo not drawn) | Spodoptera frugiperda | insecticidal activity | larvae | topical |  | LD50 | 4240 mg/kg |
| TDVDHVFLRA-NH2 (C-amide) | Drosophila melanogaster | heart rate | wandering third instar larval heart | 40 nL injected, 1 µM, 10 min | baseline: DMS | inhibition | 77% |
| DGEA | rhesus rotavirus |  | peptide, mouse cholangiocytes, Hsc70 siRNA | 1 mM | baseline: serum-free control | viral replication | inhibited |
| meglumine antimoniate | Leishmania braziliensis |  | J774.2 macrophages | IC25, day 10 | baseline: untreated | inhibition of infection | 31% |
| CP(=O)(O)CCC(N)C(=O)O (stereo not drawn) | Digitaria sanguinalis |  |  | 500 g/ha, 13 days, DIGSA, post-emergence spray | baseline: untreated (0%), complete kill (100%) | herbicidal activity | 100% |
| O=C(CN1c2c(n[nH]c2-c2cccc(Cl)c2)-c2ccccc2S1(=O)=O)NN=Cc1ccc(C(=O)O)cc1 | HIV-1 | viral replication | PBMC |  |  | EC90 | 23 µM |
| CCCCCOc1c(OC)cc(NC(C)CCCNC(=O)C(N)Cc2cc3ccccc3[nH]2)c2nc(C(C)(C)C)ccc12 (stereo not drawn) | Staphylococcus aureus | microbial killing | ATCC33591 MRSA | drug-resistant strain |  | MBC | 10 µg/mL (≈ 17 µM) |
| CCCCCCCCCCCCCCCCCC(=O)N/N=C/c1ccccc1 | Candida albicans, Aspergillus niger | fungal growth |  |  |  | MIC | 22.4 µM |
| DHVFLRF-NH2 (C-amide) | Drosophila melanogaster | heart rate | adult heart | 40 nL injected, 1 µM, 10 min | baseline: DMS | inhibition | 81% |
| YIRF-OH | Schistosoma mansoni | EthoVision motion tracking | peptide, adult worm pairs | 10 µM, 5 min, 37 °C | baseline: pretreatment mobility | change in mobility | 1.5 ± 2.05% |
| CCOC(=O)[C@]1(CS)N[C@@H](C(=O)O)C(C)(C)S1 | Proteus mirabilis | broth microdilution | clinical isolate | compound at 100 mg/L, together with: meropenem |  | MIC | 8 µg/mL |
| Cc1oc(-c2ccc(Cl)cc2)nc1CN1CCCC(C(=O)NCCCN2CCCC2=O)C1 (stereo not drawn) | Hepatitis C virus | HCV infection, Gaussia luciferase reporter | Huh7.5.1 reporter cells |  | baseline: 10 µM cyclosporin A, DMSO, negative means inhibition | maximal response | -64.8% |
| CCCCCCOc1c(OC)cc(NC(C)CCCN)c2nc(C(C)(C)C)cc(C)c12 (stereo not drawn) | Staphylococcus aureus | microbial growth | ATCC33591 MRSA | drug-resistant strain |  | IC50 | 2.75 µg/mL (≈ 6.4 µM) |
| COC(=O)N[C@H](C(=O)N1CCC[C@H]1c1ncc(-c2ccc(-c3ccc(-c4cnc([C@@H]5CCCN5C(=O)[C@@H](NC(=O)OC)C(C)C)[nH]4)cc3)cc2)[nH]1)C(C)C | hepatitis C virus | viral replication, transient replicon | genotype 1a NS5A L31M |  |  | EC50 | 0.0021 ± 0.00061 µM |

A few entries again:
| Substance | organism | assay | test system | conditions | scale | quantity | result |
| --- | --- | --- | --- | --- | --- | --- | --- |
| CCCCCCCCCCCCCCCCCC(=O)N/N=C/c1ccccc1 | Candida albicans, Aspergillus niger | fungal growth |  |  |  | MIC | 22.4 µM |
| TDVDHVFLRA-NH2 (C-amide) | Drosophila melanogaster | heart rate | wandering third instar larval heart | 40 nL injected, 1 µM, 10 min | baseline: DMS | inhibition | 77% |
